{"sequences": {"note": "By UniProt entry, the sequences of proteins in these tests, tags left out.", "UniProt P53355, whole entry": "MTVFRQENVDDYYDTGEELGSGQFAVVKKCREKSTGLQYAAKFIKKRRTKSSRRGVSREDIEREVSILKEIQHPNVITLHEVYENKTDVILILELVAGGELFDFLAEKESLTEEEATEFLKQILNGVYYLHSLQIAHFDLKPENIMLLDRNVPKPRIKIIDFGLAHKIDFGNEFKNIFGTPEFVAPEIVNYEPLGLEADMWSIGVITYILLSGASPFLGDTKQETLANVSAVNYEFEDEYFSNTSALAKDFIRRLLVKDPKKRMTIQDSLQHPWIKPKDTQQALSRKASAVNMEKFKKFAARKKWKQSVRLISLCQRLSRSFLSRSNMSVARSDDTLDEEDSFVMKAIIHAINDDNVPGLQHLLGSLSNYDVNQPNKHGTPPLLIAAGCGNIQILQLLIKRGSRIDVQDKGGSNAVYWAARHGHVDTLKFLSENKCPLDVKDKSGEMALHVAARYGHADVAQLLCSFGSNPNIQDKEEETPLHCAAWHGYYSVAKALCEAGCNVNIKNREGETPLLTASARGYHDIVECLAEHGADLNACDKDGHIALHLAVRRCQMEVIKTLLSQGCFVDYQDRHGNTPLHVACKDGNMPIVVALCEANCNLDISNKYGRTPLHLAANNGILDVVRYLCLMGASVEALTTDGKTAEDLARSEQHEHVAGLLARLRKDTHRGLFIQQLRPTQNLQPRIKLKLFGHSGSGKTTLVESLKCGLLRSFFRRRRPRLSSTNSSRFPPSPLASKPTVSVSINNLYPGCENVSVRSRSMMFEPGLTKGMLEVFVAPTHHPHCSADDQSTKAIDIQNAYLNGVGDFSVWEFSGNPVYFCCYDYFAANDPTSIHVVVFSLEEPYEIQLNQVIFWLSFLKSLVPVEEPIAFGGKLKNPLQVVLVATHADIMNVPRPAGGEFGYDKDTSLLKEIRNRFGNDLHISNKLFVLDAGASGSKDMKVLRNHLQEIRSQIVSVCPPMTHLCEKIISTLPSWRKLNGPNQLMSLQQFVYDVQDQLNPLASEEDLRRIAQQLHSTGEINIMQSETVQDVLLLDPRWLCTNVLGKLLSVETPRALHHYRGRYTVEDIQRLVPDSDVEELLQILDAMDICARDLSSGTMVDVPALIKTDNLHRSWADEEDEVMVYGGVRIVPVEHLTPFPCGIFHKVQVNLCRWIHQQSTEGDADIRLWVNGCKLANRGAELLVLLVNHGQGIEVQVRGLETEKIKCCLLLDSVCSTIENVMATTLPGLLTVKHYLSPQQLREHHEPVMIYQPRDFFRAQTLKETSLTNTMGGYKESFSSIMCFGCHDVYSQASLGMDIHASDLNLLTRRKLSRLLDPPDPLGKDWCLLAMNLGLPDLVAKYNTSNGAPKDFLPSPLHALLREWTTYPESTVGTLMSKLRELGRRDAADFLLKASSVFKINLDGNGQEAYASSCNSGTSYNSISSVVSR", "UniProt Q9P1W9, whole entry": "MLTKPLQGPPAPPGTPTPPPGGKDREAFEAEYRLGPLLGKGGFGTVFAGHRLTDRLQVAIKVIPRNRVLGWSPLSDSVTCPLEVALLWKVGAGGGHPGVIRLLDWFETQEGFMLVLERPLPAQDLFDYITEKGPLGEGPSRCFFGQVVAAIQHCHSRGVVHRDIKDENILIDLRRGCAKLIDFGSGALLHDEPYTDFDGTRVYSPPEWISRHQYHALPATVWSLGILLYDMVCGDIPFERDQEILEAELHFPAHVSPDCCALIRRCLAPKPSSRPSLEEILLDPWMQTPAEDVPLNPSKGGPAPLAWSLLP"}, "data": "Measured values collected from several papers", "note": "Numbers after ± are the reported error."}
{"Substance": "CC#C/C(=N\\OC[C@H]1COCCN1)c1ccc2ncnc(Nc3ccc(OCc4cccc(F)c4)c(Cl)c3)c2c1", "tested on": "DAPK1 (Homo sapiens, UniProt P53355)", "test": "kinase activity", "conditions": "10 µM", "measurement": "inhibition", "result": "-0.2%"}
{"Substance": "CCCSc1nc(N[C@@H]2C[C@H]2c2ccc(F)c(F)c2)c2nnn([C@@H]3C[C@H](OCCO)[C@@H](O)[C@H]3O)c2n1", "system": "STEMI patients, plasma", "conditions": "180 mg loading dose, 12 h, with: morphine", "measurement": "plasma concentration", "result": "371 ± 296 ng/mL"}
{"Substance": "O=C(Nc1ccccc1)c1cc([N+](=O)[O-])ccc1Cl", "test": "LC-MS/MS", "system": "Sprague-Dawley rat, male, plasma", "conditions": "intravenous, 2.5 mg/kg", "measurement": "C0", "result": "232 ng/mL"}
{"Substance": "CC[C@H](C)[C@@H]([C@@H](CC(=O)N1CCC[C@H]1[C@H](OC)[C@@H](C)C(=O)NCCc1ccc(OP(=O)(O)O)cc1)OC)N(C)C(=O)[C@@H](NC(=O)[C@H](C(C)C)N(C)C)C(C)C.NC(CO)(CO)CO", "system": "distilled water", "conditions": "23 °C", "measurement": "solubility", "result": "> 51 mg/mL"}
{"Substance": "C[C@H](Cc1ccc(O)c(O)c1)[C@@H](C)Cc1ccc(O)c(O)c1", "system": "human skin", "conditions": "5% w/v solution, 24 h", "measurement": "total amount delivered", "result": "31.3 ± 2.47 µg"}
{"Substance": "CO[C@]12CC[C@@]3(C[C@@H]1[C@](C)(O)C(C)(C)C)[C@H]1Cc4ccc(O)c5c4[C@@]3(CCN1)[C@H]2O5", "system": "Swiss-Webster mouse", "conditions": "subcutaneous, 1 mg/kg", "measurement": "onset of sedation", "result": "15 min"}
{"Substance": "Cc1cc(N(CCCl)CCCl)ccc1C(=O)O", "system": "mouse CD2F1, plasma", "conditions": "iv, 20 mg/kg of bendamustine", "measurement": "Cmax", "result": "48 ng/mL"}
{"Substance": "CCC(C)C(CC)C(N)=O (centres unmarked)", "test": "neurotoxicity", "system": "mouse", "conditions": "intraperitoneal", "measurement": "TD50", "result": "77 mg/kg"}
{"Substance": "CCCCCCCCCCCCCCCC(=O)NCCCC[C@H](NC(=O)CCOCCOCCOCCOCCNC(=O)CNC(=O)[C@H](CO)NC(=O)CNC(=O)[C@@H](NC(=O)[C@H](CO)NC(=O)[C@H](CC(=O)O)NC(=O)[C@H](CC(C)C)NC(=O)[C@@H](NC(=O)[C@H](CCCCN)NC(=O)[C@H](CC(N)=O)NC(=O)[C@H](CO)NC(=O)[C@H](CCCNC(=N)N)NC(=O)[C@H](CCCNC(=N)N)NC(=O)[C@@H](NC(=O)[C@H](Cc1c[nH]c2ccccc12)NC(=O)[C@H](CCC(=O)O)NC(=O)[C@H](CCCCN)NC(=O)[C@H](CO)NC(=O)[C@H](CCC(=O)O)NC(=O)[C@H](CCC(=O)O)NC(=O)[C@H](CC(C)C)NC(=O)[C@H](CC(=O)O)NC(=O)[C@H](CO)NC(=O)[C@H](CCCCN)NC(=O)[C@@H](NC(=O)[C@H](CCCCN)NC(=O)[C@H](CC(N)=O)NC(=O)[C@H](CC(C)C)NC(=O)[C@@H](NC(=O)[C@@H](NC(=O)[C@H](CO)NC(=O)[C@@H](NC(=O)[C@H](CC(=O)O)NC(=O)[C@@H](NC(=O)[C@@H]1CCCN1C(=O)[C@H](CC(=O)O)NC(=O)[C@H](CC(C)C)NC(=O)[C@H](C)NC(=O)[C@@H](NC(C)=O)C(C)C)[C@@H](C)CC)[C@@H](C)CC)[C@@H](C)CC)C(C)C)[C@@H](C)CC)[C@@H](C)CC)[C@@H](C)CC)[C@@H](C)CC)C(N)=O", "system": "water", "measurement": "solubility", "result": "34.8 ± 0.56 mg/mL"}
{"Substance": "CC(C)C[C@H](NC(=O)[C@@H]1C[C@@H](O)CN1C(=O)[C@H](Cc1ccccc1)NC(=O)[C@H](CO)NC(=O)[C@H](C)NC(=O)[C@H](Cc1ccccc1)NC(=O)[C@@H](NC(=O)[C@H](CCC(=O)O)NC(=O)[C@H](Cc1c[nH]cn1)NC(=O)[C@@H](NC(=O)[C@@H](NC(=O)[C@H](CCC(N)=O)NC(=O)[C@H](C)NC(=O)[C@@H](N)CC(=O)O)[C@@H](C)O)C(C)C)C(C)C)C(=O)N[C@@H](CC(=O)O)C(=O)N[C@@H](CO)C(=O)N[C@@H](CC(=O)O)C(=O)NCC(=O)N[C@H]1CSSC[C@@H](C(=O)N[C@@H](Cc2c[nH]c3ccccc23)C(=O)N[C@@H](CC(N)=O)C(=O)N2CCC[C@H]2C(=O)N[C@@H](C)C(=O)N[C@H]2CSSC[C@@H](C(N)=O)NC(=O)[C@H](Cc3ccc(O)cc3)NC(=O)[C@H](Cc3c[nH]cn3)NC(=O)[C@H](CCCCN)NC(=O)CNC2=O)NC1=O", "test": "RP-HPLC", "system": "mouse serum 25%", "conditions": "50 µM, 6 h, 37 °C", "measurement": "degradation to non-isomer products", "result": "22 ± 0.62%"}
{"Substance": "CCCCCCCCCCCCCCCC(=O)NCCCC[C@H](NC(=O)CNC(=O)[C@H](CO)NC(=O)CNC(=O)[C@H](CCC(N)=O)NC(=O)[C@H](Cc1c[nH]cn1)NC(=O)[C@H](Cc1c[nH]c2ccccc12)NC(=O)[C@H](CC(N)=O)NC(=O)CNC(=O)[C@@H](NC(=O)[C@H](CO)NC(=O)[C@H](CC(=O)O)NC(=O)[C@H](CC(C)C)NC(=O)[C@@H](NC(=O)[C@H](CCCCN)NC(=O)[C@H](CC(N)=O)NC(=O)[C@H](CO)NC(=O)[C@H](CCCNC(=N)N)NC(=O)[C@H](CCCNC(=N)N)NC(=O)[C@@H](NC(=O)[C@H](Cc1c[nH]c2ccccc12)NC(=O)[C@H](CCC(=O)O)NC(=O)[C@H](CCCCN)NC(=O)[C@H](CO)NC(=O)[C@H](CCC(=O)O)NC(=O)[C@H](CCC(=O)O)NC(=O)[C@H](CC(C)C)NC(=O)[C@H](CC(=O)O)NC(=O)[C@H](CCCCN)NC(=O)[C@H](CCCCN)NC(=O)[C@@H](NC(=O)[C@H](CCCCN)NC(=O)[C@H](CC(N)=O)NC(=O)[C@H](CC(C)C)NC(=O)[C@@H](NC(=O)[C@H](CCC(=O)O)NC(=O)[C@H](CO)NC(=O)[C@@H](NC(=O)[C@H](CC(=O)O)NC(=O)[C@@H](NC(=O)[C@@H]1CCCN1C(=O)[C@H](CC(=O)O)NC(=O)[C@H](CC(C)C)NC(=O)[C@H](C)NC(=O)[C@@H](N)C(C)C)[C@@H](C)CC)[C@@H](C)CC)C(C)C)[C@@H](C)CC)[C@@H](C)CC)[C@@H](C)CC)[C@@H](C)CC)C(=O)O", "system": "water", "measurement": "solubility", "result": "> 50 mg/mL"}
{"Substance": "CCN1CCN(Cc2ccc(NC(=O)c3ccc(C)c(/C=C/c4cnc5[nH]ccc5c4OC)c3)cc2C(F)(F)F)CC1", "tested on": "PIM2 (Homo sapiens, UniProt Q9P1W9)", "test": "inhibitor", "conditions": "5 µM", "scale": "relative to: no inhibitor", "measurement": "log2 fold change", "result": 0.39}
{"Substance": "C=C(C)[C@@H]1[C@H]2OC(=O)[C@@H]1[C@]1(O)C[C@H]3O[C@]34C(=O)O[C@H]2[C@]14C", "system": "male NIH-NCI Swiss mice, plasma", "conditions": "intraperitoneal, 2 mg/kg", "measurement": "half-life", "result": "~15 min"}
{"Substance": "COC(=O)[C@@]12OC[C@]34[C@H]([C@@H](O)[C@@H]1O)[C@@]1(C)CC(=O)C(OC(=O)CNC(=O)OC(C)(C)C)=C(C)[C@@H]1C[C@H]3OC(=O)[C@H](OC(=O)C=C(C)C)[C@@H]24", "system": "NOD/SCID mouse, male", "conditions": "intraperitoneal, 5 mg/kg every other day, 24 days", "measurement": "survival", "result": "50%"}
{"Substance": "CCCCCCCCCCCCCCCC(=O)NCCCC[C@H](NC(=O)CNC(=O)[C@H](CO)NC(=O)CNC(=O)[C@@H](NC(=O)[C@@H](NC(=O)[C@@H](NC(=O)[C@H](CO)NC(=O)[C@H](CO)NC(=O)[C@H](CCC(N)=O)NC(=O)[C@H](Cc1c[nH]cn1)NC(=O)[C@H](Cc1c[nH]c2ccccc12)NC(=O)[C@H](CC(N)=O)NC(=O)CNC(=O)[C@@H](NC(=O)[C@H](CO)NC(=O)[C@H](CC(=O)O)NC(=O)[C@H](CC(C)C)NC(=O)[C@@H](NC(=O)[C@H](CCCCN)NC(=O)[C@H](CC(N)=O)NC(=O)[C@H](CO)NC(=O)[C@H](CCCNC(=N)N)NC(=O)[C@H](CCCNC(=N)N)NC(=O)[C@@H](NC(=O)[C@H](Cc1c[nH]c2ccccc12)NC(=O)[C@H](CCC(=O)O)NC(=O)[C@H](CCCCN)NC(=O)[C@H](CO)NC(=O)[C@H](CCC(=O)O)NC(=O)[C@H](CCC(=O)O)NC(=O)[C@H](CC(C)C)NC(=O)[C@H](CC(=O)O)NC(=O)[C@H](CO)NC(=O)[C@H](CCCCN)NC(=O)[C@@H](NC(=O)[C@H](CCCCN)NC(=O)[C@H](CC(N)=O)NC(=O)[C@H](CC(C)C)NC(=O)[C@@H](N)C(C)C)[C@@H](C)CC)[C@@H](C)CC)[C@@H](C)CC)[C@@H](C)CC)[C@@H](C)O)[C@@H](C)O)[C@@H](C)CC)C(=O)O", "system": "PBS", "measurement": "solubility", "result": "0.07 ± 0.02 mg/mL"}
{"Substance": "CC[C@@H](C(N)=O)N1CCCC1=O", "test": "LC-MS/MS", "system": "rat, paraoxon-induced status epilepticus, whole blood", "conditions": "oral, 50 mg/kg levetiracetam, with: atropine 5 mg/kg", "measurement": "Cmax", "result": "3630 ng/mL"}
{"Substance": "cisplatin", "measurement": "logP", "result": -2.19}
{"note": "Excerpt of the above:"}
{"Substance": "Cc1cc(N(CCCl)CCCl)ccc1C(=O)O", "system": "mouse CD2F1, plasma", "conditions": "iv, 20 mg/kg of bendamustine", "measurement": "Cmax", "result": "48 ng/mL"}
{"Substance": "CCCSc1nc(N[C@@H]2C[C@H]2c2ccc(F)c(F)c2)c2nnn([C@@H]3C[C@H](OCCO)[C@@H](O)[C@H]3O)c2n1", "system": "STEMI patients, plasma", "conditions": "180 mg loading dose, 12 h, with: morphine", "measurement": "plasma concentration", "result": "371 ± 296 ng/mL"}
